Literature values as cited in several papers.
≈ marks a conversion by molar mass, not a printed value.

Compound	tested on	test	system	conditions	measurement	result
CNC(C)C1CCC(N)C(OC2C(N)CC(N)C(OC3OCC(C)(O)C(NC)C3O)C2O)O1 (stereo not shown)	Enterobacter cloacae		clinical isolate RKI-No_34/16		MIC	4 mg/L (≈ 8.38 µM)
O=C(Nc1nc2ccccc2[nH]1)c1ccccc1	PPC-1			5 µM, PubChem AID 1447	response	60%
CC(=O)c1c(C)c2cnc(Nc3ccc(N4CCNCC4)cn3)nc2n(C2CCCC2)c1=O	T98G				IC50	62.9 µM
O=C1CCC(N2C(=O)c3ccccc3C2=O)C(=O)N1 (stereo not shown)	MM1.S	cell proliferation		100 µM	inhibition	15%
O=c1ncccn1[C@@H]1O[C@H](CO)[C@@H](O)[C@H]1O	Jurkat				IC20	10 µM
CC(=O)c1c(C)c2cnc(Nc3ccc(N4CCNCC4)cn3)nc2n(C2CCCC2)c1=O	human neutrophils			concentration not given, together with: fMLF	intracellular calcium mobilization	no effect
C[C@H]1COCCN1c1nc(-c2cnc(N)cc2C(F)F)nc(N2CCOCC2)n1	NCI-H82				GI50	0.504 µM
COc1ccc(-c2coc3cc(O)ccc3c2=O)cc1	Caco-2 monolayers			concentration not given	TEER increase	no effect
[Cl-].c1csc([I+]c2cccs2)c1	macrophages	mitochondrial respiration			inhibitory concentration	21 µM
CC1(C)S[C@@H]2[C@H](NC(=O)[C@H](N)c3ccccc3)C(=O)N2[C@H]1C(=O)O	Enterobacter cloacae		clinical isolate RKI-No_33/16		MIC	> 16 mg/L
COc1cc2ncnc(Nc3ccc(F)c(Cl)c3)c2cc1OCCCN1CCOCC1	NCI60 panel			mean over panel	GI50	3.2 µM
C[C@@H](O)[C@H](NC(=O)[C@@H]1CSSC[C@H](NC(=O)[C@@H](Cc2ccccc2)NC(=O)CN2CCCN3CCN(CCCN(CC(=O)O)CC3)CC2)C(=O)N[C@@H](Cc2ccc(O)cc2)C(=O)N[C@H](Cc2c[nH]c3ccccc23)C(=O)N[C@@H](CCCCN)C(=O)N[C@@H]([C@@H](C)O)C(=O)N1)C(=O)O [copper-64 labelled]	AR-42J	binding			Kd	0.0017 µM
Cc1c(C#N)cccc1[C@@H](C)Nc1nnc(C)c2cnc(N3CCOCC3)cc12	HT115	3D cell viability		7 d	IC50	> 1 µM
CC(C)(C)c1nc(-c2cccc(NS(=O)(=O)c3c(F)cccc3F)c2F)c(-c2ccnc(N)n2)s1	T98G				IC50	162 µM
Nc1cc(C(F)(F)F)c(-c2nc(N3CCOCC3)nc(N3CCOCC3)n2)cn1	LoVo				GI50	0.332 µM
Cn1ncc(Cl)c1-c1cc(C(=O)N[C@H](CN)Cc2ccc(F)c(F)c2)oc1Cl	T98G				IC50	23.9 µM
O=C(Nc1cccc2c(=O)cc(-c3nnn[nH]3)oc12)c1ccc(OCCCCc2ccccc2)cc1	HEK293	VRAC current, inhibitor		hypotonic swelling-activated	maximal inhibition	~50%
O=c1[nH]cc(F)c(=O)[nH]1	NCI60 panel			mean over panel	GI50	18 µM
CC(C)(C)c1ccc(O)c(CN(Cc2cc(C(C)(C)C)ccc2O)C2CCC(NC(N)=O)CC2)c1 (stereo not shown)	HMC3			concentration not given, together with: thrombin	nitric oxide release	decreased

Repeated from above:
Compound	tested on	test	system	conditions	measurement	result
O=C1CCC(N2C(=O)c3ccccc3C2=O)C(=O)N1 (stereo not shown)	MM1.S	cell proliferation		100 µM	inhibition	15%
O=c1ncccn1[C@@H]1O[C@H](CO)[C@@H](O)[C@H]1O	Jurkat				IC20	10 µM
